{"data": "Experimental data of several laboratories", "CYP2C19": "Cytochrome P450 2C19 (CYP2C19, Homo sapiens, UniProt P33261)", "SLC22A8": "Organic anion transporter 3 (SLC22A8, Homo sapiens, UniProt Q8TCC7)", "ALB": "Albumin (ALB, Homo sapiens, UniProt P02768)", "CYP3A5": "Cytochrome P450 3A5 (CYP3A5, Homo sapiens, UniProt P20815)", "note": "Each line is one published result; not all experiments were run side by side. ± gives the spread as reported.", "chain of UniProt Q8TCC7 (whole entry, looked up)": "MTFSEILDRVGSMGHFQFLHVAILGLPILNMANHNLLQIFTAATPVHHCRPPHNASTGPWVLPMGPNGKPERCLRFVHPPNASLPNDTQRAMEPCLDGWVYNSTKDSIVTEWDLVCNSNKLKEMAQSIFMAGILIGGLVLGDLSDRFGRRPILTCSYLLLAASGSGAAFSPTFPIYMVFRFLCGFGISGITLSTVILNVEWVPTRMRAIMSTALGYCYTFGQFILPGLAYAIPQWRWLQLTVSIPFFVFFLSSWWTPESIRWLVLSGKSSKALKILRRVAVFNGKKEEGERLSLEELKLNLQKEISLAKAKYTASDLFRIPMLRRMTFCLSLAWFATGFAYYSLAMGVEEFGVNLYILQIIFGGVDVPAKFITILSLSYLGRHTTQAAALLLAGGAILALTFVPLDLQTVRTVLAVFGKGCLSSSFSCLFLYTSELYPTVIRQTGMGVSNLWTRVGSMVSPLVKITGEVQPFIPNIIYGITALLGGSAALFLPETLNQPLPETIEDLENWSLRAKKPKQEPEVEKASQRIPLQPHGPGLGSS", "chain of UniProt P20815 (whole entry, looked up)": "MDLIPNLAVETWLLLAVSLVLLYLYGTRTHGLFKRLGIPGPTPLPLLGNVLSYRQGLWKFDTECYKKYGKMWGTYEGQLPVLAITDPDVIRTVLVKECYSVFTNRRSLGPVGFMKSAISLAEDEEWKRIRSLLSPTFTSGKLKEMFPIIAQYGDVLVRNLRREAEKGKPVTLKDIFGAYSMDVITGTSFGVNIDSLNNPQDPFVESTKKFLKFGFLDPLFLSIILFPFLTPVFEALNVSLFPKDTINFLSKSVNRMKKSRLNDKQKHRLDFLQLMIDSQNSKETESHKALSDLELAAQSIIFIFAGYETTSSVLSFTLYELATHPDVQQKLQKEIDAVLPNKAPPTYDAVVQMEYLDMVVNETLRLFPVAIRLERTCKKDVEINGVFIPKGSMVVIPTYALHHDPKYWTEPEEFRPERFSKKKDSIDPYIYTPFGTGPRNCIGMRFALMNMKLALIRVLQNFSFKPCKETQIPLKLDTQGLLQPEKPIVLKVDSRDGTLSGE", "chain of UniProt P33261 (whole entry, looked up)": "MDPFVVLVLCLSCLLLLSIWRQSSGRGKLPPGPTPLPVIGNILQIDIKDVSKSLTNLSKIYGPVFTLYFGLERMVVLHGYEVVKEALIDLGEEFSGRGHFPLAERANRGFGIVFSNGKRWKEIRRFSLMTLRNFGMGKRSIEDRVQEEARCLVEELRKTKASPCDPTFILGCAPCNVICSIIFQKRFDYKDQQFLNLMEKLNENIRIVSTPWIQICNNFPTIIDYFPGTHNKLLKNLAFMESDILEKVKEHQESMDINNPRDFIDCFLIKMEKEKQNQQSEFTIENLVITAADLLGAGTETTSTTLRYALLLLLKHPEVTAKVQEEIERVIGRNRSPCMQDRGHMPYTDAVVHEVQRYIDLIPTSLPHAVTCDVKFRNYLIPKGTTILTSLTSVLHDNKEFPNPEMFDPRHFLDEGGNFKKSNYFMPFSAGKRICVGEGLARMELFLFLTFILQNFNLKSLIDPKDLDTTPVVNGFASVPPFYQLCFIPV", "chain of UniProt O15245 (whole entry, looked up)": "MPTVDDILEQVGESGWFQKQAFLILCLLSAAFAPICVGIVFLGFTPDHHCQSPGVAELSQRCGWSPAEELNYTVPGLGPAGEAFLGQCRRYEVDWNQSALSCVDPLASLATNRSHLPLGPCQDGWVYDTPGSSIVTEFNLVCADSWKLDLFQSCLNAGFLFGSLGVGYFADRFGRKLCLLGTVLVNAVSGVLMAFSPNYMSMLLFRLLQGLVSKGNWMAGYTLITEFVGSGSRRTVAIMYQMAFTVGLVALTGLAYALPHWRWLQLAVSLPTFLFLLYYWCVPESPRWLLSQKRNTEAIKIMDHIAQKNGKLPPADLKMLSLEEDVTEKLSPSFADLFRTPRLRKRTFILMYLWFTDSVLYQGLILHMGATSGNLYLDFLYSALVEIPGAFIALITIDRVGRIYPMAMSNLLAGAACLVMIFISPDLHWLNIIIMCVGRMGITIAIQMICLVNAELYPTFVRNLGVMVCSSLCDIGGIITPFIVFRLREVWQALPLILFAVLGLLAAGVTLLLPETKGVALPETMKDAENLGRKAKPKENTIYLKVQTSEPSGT", "chain of UniProt P08684 (whole entry, looked up)": "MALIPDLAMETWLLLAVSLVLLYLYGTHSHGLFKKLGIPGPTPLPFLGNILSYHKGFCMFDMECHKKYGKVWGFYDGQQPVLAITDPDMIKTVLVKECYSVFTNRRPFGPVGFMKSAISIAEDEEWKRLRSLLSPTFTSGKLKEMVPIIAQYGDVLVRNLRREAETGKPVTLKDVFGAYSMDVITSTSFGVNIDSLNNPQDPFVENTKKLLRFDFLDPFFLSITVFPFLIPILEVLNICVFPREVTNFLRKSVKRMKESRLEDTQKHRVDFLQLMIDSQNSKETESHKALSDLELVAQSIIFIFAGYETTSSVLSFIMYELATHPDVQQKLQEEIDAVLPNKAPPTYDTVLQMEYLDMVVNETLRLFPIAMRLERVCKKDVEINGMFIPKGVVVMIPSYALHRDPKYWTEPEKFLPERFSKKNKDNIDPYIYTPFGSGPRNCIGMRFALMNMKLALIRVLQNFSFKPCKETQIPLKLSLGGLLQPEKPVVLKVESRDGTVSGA", "chain of UniProt P08183 (whole entry, looked up)": "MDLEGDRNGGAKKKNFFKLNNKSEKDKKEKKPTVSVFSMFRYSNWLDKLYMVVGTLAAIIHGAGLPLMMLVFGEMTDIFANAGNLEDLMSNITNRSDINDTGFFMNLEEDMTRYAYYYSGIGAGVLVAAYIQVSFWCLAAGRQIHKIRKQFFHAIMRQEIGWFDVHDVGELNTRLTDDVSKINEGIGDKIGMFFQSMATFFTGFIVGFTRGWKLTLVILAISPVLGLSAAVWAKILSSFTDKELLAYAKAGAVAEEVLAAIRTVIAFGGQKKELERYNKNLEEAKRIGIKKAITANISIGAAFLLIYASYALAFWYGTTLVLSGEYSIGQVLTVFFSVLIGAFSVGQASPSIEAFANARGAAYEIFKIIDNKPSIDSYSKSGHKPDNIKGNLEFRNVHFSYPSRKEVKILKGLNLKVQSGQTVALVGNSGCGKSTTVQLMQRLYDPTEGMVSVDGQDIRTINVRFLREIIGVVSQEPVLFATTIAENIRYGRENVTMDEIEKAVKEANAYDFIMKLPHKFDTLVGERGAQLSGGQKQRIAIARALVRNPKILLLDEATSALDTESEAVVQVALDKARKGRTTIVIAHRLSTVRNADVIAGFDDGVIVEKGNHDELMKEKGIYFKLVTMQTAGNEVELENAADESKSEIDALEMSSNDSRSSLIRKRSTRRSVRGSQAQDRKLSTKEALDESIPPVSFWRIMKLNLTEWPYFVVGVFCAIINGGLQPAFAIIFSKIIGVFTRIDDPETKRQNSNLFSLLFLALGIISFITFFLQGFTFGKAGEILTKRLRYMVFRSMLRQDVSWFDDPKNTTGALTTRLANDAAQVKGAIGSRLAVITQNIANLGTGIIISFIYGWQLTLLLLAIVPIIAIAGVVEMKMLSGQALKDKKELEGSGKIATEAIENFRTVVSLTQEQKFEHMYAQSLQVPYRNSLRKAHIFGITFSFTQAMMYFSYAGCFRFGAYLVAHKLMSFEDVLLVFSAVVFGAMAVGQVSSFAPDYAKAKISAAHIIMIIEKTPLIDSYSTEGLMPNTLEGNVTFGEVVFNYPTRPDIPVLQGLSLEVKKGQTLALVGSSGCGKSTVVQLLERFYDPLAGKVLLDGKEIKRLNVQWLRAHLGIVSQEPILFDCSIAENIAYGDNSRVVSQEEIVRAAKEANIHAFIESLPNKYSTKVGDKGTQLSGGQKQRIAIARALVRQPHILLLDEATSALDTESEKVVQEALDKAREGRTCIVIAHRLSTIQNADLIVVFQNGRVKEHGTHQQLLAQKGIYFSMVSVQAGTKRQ", "chain of UniProt P05177 (whole entry, looked up)": "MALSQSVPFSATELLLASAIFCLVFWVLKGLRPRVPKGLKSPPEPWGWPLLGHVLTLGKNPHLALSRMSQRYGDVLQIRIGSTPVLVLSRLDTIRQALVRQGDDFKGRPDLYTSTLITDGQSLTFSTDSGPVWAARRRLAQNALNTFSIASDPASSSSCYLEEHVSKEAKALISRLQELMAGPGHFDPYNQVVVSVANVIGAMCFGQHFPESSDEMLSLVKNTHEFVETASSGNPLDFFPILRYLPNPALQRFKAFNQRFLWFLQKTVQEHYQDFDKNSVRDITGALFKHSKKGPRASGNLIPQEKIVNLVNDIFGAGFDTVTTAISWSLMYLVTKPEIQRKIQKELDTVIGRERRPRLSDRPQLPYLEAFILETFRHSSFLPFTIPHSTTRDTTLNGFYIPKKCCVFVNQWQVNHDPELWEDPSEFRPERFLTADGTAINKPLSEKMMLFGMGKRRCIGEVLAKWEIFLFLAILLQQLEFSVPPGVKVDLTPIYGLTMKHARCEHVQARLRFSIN"}
{"Structure (SMILES)": "COc1ccc2nc([S+]([O-])Cc3ncc(CO)c(OC)c3C)[nH]c2c1 (stereo not shown)", "target": "CYP2C19", "assay": "CYP2C19 probe metabolite", "test system": "human, plasma", "conditions": "oral, 20 mg omeprazole, day -7, probe cocktail alone, geometric mean", "endpoint": "Cmax", "value": "91.8 ng/mL"}
{"Structure (SMILES)": "C[C@H](CCC(=O)NCC(=O)O)[C@H]1CC[C@H]2[C@@H]3[C@H](O)C[C@@H]4C[C@H](OS(=O)(=O)O)CC[C@]4(C)[C@H]3CC[C@]12C", "target": "SLC22A8", "assay": "substrate", "test system": "MDCK-II parental cells", "endpoint": "uptake rate", "value": "8.4 ± 2.6 pmol/min/mg protein"}
{"Structure (SMILES)": "COc1cc2nc(N3CCN(C(=O)C4COc5ccccc5O4)CC3)nc(N)c2cc1OC (stereo not shown)", "target": "Alpha-1-acid glycoprotein 1, F1/S variants (ORM1, Homo sapiens, UniProt P02763)", "assay": "binding, ultrafiltration competition", "conditions": "37 °C, with: S-warfarin marker", "endpoint": "Ki", "value": "47.2 µM"}
{"Structure (SMILES)": "COc1cc(-c2[o+]c3cc(O)cc(O)c3cc2O[C@@H]2O[C@H](CO)[C@@H](O)[C@H](O)[C@H]2O)cc(O)c1O", "target": "ALB", "assay": "binding, fluorescence quenching", "conditions": "pH 7, 20 °C, HSA 2 µM", "endpoint": "Kd", "value": "29.7 ± 0.77 µM"}
{"Structure (SMILES)": "CCS(=O)(=O)N1CC(CC#N)(n2cc(-c3ncnc4[nH]ccc34)cn2)C1", "target": "SLC22A8", "assay": "substrate transport, inhibitor", "test system": "cells expressing human OAT3", "conditions": "Iu 0.072 µM, with: 3H-estrone sulfate 0.1 µM", "endpoint": "Iu/IC50 ratio", "value": 0.009}
{"Structure (SMILES)": "C[C@@H](Oc1ccc(S(C)(=O)=O)cc1C(=O)N1C[C@@H]2C[C@]2(c2cc(C(F)(F)F)on2)C1)C(F)(F)F", "target": "CYP3A5", "assay": "recombinant CYP, metabolite formation", "test system": "phosphate buffer", "conditions": "pH 7.4", "endpoint": "CYP contribution", "value": "3.41%"}
{"Structure (SMILES)": "N#C[C@H](C[C@@H]1CCCNC1=O)NC(=O)[C@H](CC1CC1)NC(=O)c1cc2cccc(Cl)c2[nH]1", "target": "CYP3A5", "assay": "NADPH metabolic stability", "conditions": "2 µM, pH 7.4, 37 °C, 100 pmol/mL enzyme", "endpoint": "half-life", "value": "1.77 min"}
{"Structure (SMILES)": "CC[C@H]1[C@@H](O)[C@@H]2[C@H](CC[C@]3(C)[C@@H]([C@H](C)CCNC(=O)NS(=O)(=O)c4ccc(C(C)(C)C)cc4)CC[C@@H]23)[C@@]2(C)CC[C@@H](O)C[C@@H]12", "target": "ABCB1 (Homo sapiens, UniProt P08183)", "test system": "human, plasma", "conditions": "geometric mean", "endpoint": "Tlast", "value": "70.8 h"}
{"Structure (SMILES)": "COc1ccc(F)cc1C(=O)NCc1ccc(-c2nn([C@@H](C)C(F)(F)F)c(N)c2C(N)=O)cc1", "target": "Cytochrome P450 3A4 (CYP3A4, Homo sapiens, UniProt P08684)", "test system": "human, both sexes, plasma", "conditions": "oral, 200 mg, single dose, with: rifampin", "endpoint": "Cmax", "value": "2580 ng/mL"}
{"Structure (SMILES)": "C=CC(=O)N(C)CCOc1c(N)ncnc1-c1cc(F)cc(NC(=O)c2ccc(C3CC3)cc2F)c1C", "target": "CYP3A5", "assay": "recombinant enzyme incubation", "endpoint": "fraction unbound in microsomal incubation", "value": 0.94}
{"Structure (SMILES)": "CCC(CC)C(=O)Oc1cccc(C(O)CCN)c1.O=CO (stereo not shown)", "target": "porcine liver esterase", "conditions": "99 µM, 60 min", "how to read": "baseline: time 0 min", "endpoint": "compound remaining", "value": "33%"}
{"Structure (SMILES)": "OC[C@H]1O[C@@H](Oc2cc3c(O)cc(O)cc3[o+]c2-c2ccc(O)cc2)[C@H](O)[C@@H](O)[C@@H]1O", "target": "ALB", "assay": "binding, fluorescence quenching", "conditions": "pH 7, 40 °C, HSA 2 µM", "endpoint": "Kd", "value": "82.4 ± 8.75 µM"}
{"Structure (SMILES)": "NCCC(O)c1cccc(OC(=O)C2CCCCC2)c1.O=CO (stereo not shown)", "target": "porcine liver esterase", "conditions": "99 µM, 60 min", "how to read": "baseline: time 0 min", "endpoint": "compound remaining", "value": "6.61%"}
{"Structure (SMILES)": "Cc1cc(C)c(CNC(=O)c2cc(Cl)c3c(c2C)O[C@@](C)([C@H]2CC[C@H](N(C)C)CC2)O3)c(=O)[nH]1", "target": "ALB", "assay": "ultracentrifugation", "test system": "4% human serum albumin solution", "conditions": "3000 ng/mL, 160 min", "endpoint": "unbound fraction", "value": 0.65}
{"Structure (SMILES)": "O=c1[nH]c(=O)c(Cc2cccc(C(F)(F)F)c2)c([C@H]2CC[C@H](c3ccccc3)CC2)[nH]1", "target": "ABCB11 (Homo sapiens, UniProt O95342)", "assay": "transport, inhibitor", "test system": "inside-out membrane vesicles", "conditions": "with: taurocholic acid", "endpoint": "IC50", "value": "> 3.5 µM"}
{"Structure (SMILES)": "Cc1oc2ccccc2c1Cc1cc(I)c(OCC(=O)O)c(I)c1", "target": "Voltage-gated inwardly rectifying potassium channel KCNH2, Δ2-373 truncation (KCNH2, Homo sapiens, UniProt Q12809)", "assay": "hERG current, inhibitor, two-electrode voltage clamp", "test system": "Xenopus oocytes expressing hERG1 Δ2-373", "conditions": "50 µM, test potential +30 mV", "endpoint": "inhibition", "value": "61 ± 6%"}
{"Structure (SMILES)": "COC(=O)c1cc(C(C)=NNc2nc(-c3ccc(C#N)cc3)cs2)ccc1O", "target": "PTPN1 (Homo sapiens, UniProt P18031)", "assay": "enzyme activity, inhibitor", "conditions": "concentration not given", "endpoint": "duration of inhibition", "value": "~20 min"}
{"Structure (SMILES)": "CCc1cc(/C(C)=N/OCc2ccc(C3CCCCC3)c(C(F)(F)F)c2)ccc1CN1CC(C(=O)O)C1", "target": "SLC22A8", "assay": "transport, inhibitor", "test system": "HEK293 transfected with SLC22A8", "conditions": "up to 24.3 µM, 5 min, with: estrone-3-sulfate 1 µM", "endpoint": "maximal inhibition", "value": "5.6%"}
{"Structure (SMILES)": "COc1cc(-c2[o+]c3cc(O)cc(O)c3cc2O[C@@H]2O[C@H](CO)[C@@H](O)[C@H](O)[C@H]2O)ccc1O", "target": "ALB", "assay": "binding, fluorescence quenching", "conditions": "pH 7, 20 °C, HSA 2 µM", "endpoint": "Kd", "value": "44.1 ± 2.91 µM"}
{"Structure (SMILES)": "C=C1CCC2C(C)(CO)C(=O)CCC2(C)C1CCC1=CCOC1=O (stereo not shown)", "target": "UGT2B7 (Homo sapiens, UniProt P16662)", "assay": "AZT glucuronidation, inhibitor", "test system": "human liver microsomes", "conditions": "with: zidovudine substrate", "endpoint": "Ki", "value": "25 µM"}
{"Structure (SMILES)": "NC/C(=C\\F)COc1cccc(Cn2c(=S)[nH]c(=O)c3[nH]cnc32)c1", "target": "SLC22A1 (Homo sapiens, UniProt O15245)", "assay": "transport, inhibitor", "test system": "CHO cells expressing SLC22A1", "conditions": "30 µM, with: ASP+ substrate", "endpoint": "inhibition", "value": "< 50%"}
{"Structure (SMILES)": "COc1ccc2[nH]c([S+]([O-])Cc3ncc(C)c(OC)c3C)nc2c1 (stereo not shown)", "target": "CYP2C19", "assay": "refers to: 5-hydroxyomeprazole", "test system": "human, plasma", "conditions": "oral, 20 mg omeprazole, day 1, cocktail with binimetinib and encorafenib", "endpoint": "AUC(0-t)", "value": "1020 ng·h/mL"}
{"Structure (SMILES)": "C=CC(=O)Nc1cc(Nc2nccc(-c3cn(C)c4ccccc34)n2)c(OCC(F)(F)F)nc1N(C)CCNC", "target": "CYP3A5", "assay": "substrate depletion", "test system": "recombinant human CYP", "conditions": "1 µM", "endpoint": "intrinsic clearance", "value": "0.3 µL/min/pmol"}
{"Structure (SMILES)": "COc1cc(O)c(CC=C(C)C)c(O)c1C(=O)/C=C/c1ccc(O)cc1", "target": "CYP2E1 (human)", "assay": "enzyme activity, inhibitor", "test system": "human liver microsomes", "conditions": "1 µM, pH 7.4, with: chlorzoxazone", "endpoint": "inhibition", "value": "< 10%"}
{"Structure (SMILES)": "CCCC(CCC)C(=O)Oc1cccc(C(O)CCN)c1.O=CO (stereo not shown)", "target": "porcine liver esterase", "conditions": "99 µM, 30 min", "how to read": "baseline: time 0 min", "endpoint": "compound remaining", "value": "90.1%"}
{"Structure (SMILES)": "COc1cc(O)c(CC=C(C)C)c2c1C(=O)CC(c1ccc(O)cc1)O2 (stereo not shown)", "target": "CYP2E1 (human)", "assay": "enzyme activity, inhibitor", "test system": "human liver microsomes", "conditions": "1 µM, pH 7.4, with: chlorzoxazone", "endpoint": "inhibition", "value": "< 10%"}
{"Structure (SMILES)": "N#Cc1cc(NC(=O)[C@H]2c3ccccc3C(=O)N(CC(F)(F)F)[C@@H]2c2cccnc2)ccc1F", "target": "CYP1A2, 2C9, 2C19, 2D6, 3A4", "test system": "human liver microsomes", "conditions": "concentration not given", "endpoint": "inhibition", "value": "no inhibition"}
{"Structure (SMILES)": "Cn1c(=O)c2c(ncn2C)n(C)c1=O", "target": "Cytochrome P450 1A2 (CYP1A2, Homo sapiens, UniProt P05177)", "test system": "human, plasma", "conditions": "oral, 200 mg, day 1, alone, arithmetic mean", "endpoint": "AUC(0-t)", "value": "32600 ng·h/mL"}
{"note": "Excerpt of the above:"}
{"Structure (SMILES)": "C=CC(=O)N(C)CCOc1c(N)ncnc1-c1cc(F)cc(NC(=O)c2ccc(C3CC3)cc2F)c1C", "target": "CYP3A5", "assay": "recombinant enzyme incubation", "endpoint": "fraction unbound in microsomal incubation", "value": 0.94}
{"Structure (SMILES)": "CCC(CC)C(=O)Oc1cccc(C(O)CCN)c1.O=CO (stereo not shown)", "target": "porcine liver esterase", "conditions": "99 µM, 60 min", "how to read": "baseline: time 0 min", "endpoint": "compound remaining", "value": "33%"}
{"Structure (SMILES)": "OC[C@H]1O[C@@H](Oc2cc3c(O)cc(O)cc3[o+]c2-c2ccc(O)cc2)[C@H](O)[C@@H](O)[C@@H]1O", "target": "ALB", "assay": "binding, fluorescence quenching", "conditions": "pH 7, 40 °C, HSA 2 µM", "endpoint": "Kd", "value": "82.4 ± 8.75 µM"}
{"Structure (SMILES)": "NCCC(O)c1cccc(OC(=O)C2CCCCC2)c1.O=CO (stereo not shown)", "target": "porcine liver esterase", "conditions": "99 µM, 60 min", "how to read": "baseline: time 0 min", "endpoint": "compound remaining", "value": "6.61%"}
